Experimental data collected from several papers.
Parts stem from different laboratories: compare values within a part only.
Sequence of UniProt Q08345 (whole entry, looked up): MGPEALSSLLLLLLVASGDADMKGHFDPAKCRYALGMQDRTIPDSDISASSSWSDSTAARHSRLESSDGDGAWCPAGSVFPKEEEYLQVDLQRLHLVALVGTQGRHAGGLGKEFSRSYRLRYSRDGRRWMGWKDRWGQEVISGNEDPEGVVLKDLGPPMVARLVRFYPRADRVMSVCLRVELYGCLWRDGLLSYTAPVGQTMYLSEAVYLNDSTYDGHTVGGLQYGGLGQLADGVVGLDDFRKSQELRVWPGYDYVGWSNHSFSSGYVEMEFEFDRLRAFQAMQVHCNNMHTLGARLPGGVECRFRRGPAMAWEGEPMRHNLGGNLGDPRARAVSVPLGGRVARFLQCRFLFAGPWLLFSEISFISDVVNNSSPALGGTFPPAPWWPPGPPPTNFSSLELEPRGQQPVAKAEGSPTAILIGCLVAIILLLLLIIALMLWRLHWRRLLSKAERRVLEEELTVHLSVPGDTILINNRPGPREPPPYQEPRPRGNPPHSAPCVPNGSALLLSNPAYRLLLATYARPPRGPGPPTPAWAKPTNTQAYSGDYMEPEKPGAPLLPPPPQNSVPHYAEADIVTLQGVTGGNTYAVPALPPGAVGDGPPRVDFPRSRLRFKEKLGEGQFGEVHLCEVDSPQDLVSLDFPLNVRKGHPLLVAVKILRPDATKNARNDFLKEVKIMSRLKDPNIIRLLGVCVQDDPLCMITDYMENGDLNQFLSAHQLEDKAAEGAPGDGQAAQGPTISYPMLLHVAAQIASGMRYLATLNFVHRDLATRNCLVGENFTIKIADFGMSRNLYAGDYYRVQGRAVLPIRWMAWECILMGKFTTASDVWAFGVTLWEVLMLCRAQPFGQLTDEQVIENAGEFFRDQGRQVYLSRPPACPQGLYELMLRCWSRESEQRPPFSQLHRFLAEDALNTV
Sequence of UniProt Q15746 (whole entry, looked up): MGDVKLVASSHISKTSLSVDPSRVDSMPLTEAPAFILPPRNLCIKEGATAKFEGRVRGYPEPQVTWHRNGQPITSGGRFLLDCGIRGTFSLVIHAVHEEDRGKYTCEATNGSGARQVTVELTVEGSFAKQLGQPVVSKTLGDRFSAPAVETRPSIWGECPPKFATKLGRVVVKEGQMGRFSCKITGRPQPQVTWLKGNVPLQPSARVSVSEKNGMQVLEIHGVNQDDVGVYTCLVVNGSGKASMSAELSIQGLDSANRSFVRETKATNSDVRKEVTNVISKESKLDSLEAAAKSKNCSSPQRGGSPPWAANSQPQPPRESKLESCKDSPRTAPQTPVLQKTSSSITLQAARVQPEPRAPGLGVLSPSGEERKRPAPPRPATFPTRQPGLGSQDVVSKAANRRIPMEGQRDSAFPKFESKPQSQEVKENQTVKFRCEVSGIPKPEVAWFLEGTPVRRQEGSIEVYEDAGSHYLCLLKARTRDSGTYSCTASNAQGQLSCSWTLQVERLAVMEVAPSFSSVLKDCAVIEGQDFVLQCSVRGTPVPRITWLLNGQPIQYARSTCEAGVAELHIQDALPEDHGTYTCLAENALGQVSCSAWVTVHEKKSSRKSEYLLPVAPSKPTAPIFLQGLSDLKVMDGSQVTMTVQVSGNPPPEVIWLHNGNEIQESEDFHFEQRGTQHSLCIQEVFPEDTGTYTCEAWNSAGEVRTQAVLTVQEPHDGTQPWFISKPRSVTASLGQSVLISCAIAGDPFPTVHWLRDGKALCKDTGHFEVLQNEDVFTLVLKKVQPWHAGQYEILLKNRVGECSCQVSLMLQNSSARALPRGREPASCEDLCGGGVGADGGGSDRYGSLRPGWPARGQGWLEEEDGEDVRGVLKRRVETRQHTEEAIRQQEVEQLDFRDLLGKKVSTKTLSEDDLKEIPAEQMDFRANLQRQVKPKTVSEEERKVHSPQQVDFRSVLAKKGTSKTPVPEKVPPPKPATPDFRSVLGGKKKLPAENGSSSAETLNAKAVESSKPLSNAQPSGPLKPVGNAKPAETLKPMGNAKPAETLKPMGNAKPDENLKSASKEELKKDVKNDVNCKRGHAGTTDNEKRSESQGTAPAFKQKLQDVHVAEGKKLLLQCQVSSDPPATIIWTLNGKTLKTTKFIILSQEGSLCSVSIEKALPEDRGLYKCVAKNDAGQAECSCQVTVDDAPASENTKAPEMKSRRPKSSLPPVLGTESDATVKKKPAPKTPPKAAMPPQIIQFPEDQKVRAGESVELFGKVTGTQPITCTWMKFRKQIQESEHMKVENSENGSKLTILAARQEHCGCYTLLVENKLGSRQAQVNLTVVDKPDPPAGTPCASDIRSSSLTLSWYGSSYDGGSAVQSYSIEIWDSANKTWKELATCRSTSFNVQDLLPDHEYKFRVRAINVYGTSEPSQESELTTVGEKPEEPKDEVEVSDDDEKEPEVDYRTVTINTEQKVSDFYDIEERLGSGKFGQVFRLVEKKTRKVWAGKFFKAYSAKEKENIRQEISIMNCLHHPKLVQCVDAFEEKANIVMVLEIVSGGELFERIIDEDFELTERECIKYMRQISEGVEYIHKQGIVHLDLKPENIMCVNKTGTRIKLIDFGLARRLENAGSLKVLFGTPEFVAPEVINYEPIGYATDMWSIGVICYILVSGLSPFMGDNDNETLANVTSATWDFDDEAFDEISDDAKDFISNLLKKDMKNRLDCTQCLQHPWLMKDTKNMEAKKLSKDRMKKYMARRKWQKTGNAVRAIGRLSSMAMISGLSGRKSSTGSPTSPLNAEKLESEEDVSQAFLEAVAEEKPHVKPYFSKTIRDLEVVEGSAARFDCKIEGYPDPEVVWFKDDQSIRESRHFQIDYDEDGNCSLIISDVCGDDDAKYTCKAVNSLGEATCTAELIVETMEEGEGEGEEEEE
Sequence of UniProt P0C264 (whole entry, looked up): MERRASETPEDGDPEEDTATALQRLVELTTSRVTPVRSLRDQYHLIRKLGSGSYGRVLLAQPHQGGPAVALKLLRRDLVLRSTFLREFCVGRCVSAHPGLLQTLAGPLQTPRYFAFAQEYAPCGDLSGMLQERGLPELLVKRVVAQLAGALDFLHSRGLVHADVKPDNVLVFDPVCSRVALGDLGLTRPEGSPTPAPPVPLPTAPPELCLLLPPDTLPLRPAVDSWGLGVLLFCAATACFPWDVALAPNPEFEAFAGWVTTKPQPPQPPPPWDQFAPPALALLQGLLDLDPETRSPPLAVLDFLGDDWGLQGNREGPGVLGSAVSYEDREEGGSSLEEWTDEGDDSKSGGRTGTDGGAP
Sequence of UniProt P41743 (whole entry, looked up): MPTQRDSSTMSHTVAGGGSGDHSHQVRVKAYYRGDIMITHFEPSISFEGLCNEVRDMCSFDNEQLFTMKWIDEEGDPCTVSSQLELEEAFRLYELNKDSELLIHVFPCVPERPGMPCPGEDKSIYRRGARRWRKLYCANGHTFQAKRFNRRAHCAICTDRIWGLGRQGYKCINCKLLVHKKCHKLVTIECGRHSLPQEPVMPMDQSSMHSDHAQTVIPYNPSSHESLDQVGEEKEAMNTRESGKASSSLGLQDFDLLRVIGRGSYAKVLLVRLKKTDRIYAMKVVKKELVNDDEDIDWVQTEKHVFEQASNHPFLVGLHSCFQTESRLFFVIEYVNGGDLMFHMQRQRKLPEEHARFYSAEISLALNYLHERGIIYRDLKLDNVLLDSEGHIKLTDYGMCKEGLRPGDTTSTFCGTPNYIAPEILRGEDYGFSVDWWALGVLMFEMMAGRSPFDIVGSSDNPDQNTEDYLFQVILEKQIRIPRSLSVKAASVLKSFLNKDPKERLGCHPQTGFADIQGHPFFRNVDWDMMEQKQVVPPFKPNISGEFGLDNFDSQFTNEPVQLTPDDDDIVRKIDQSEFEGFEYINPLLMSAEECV
Sequence of UniProt P21802 (whole entry, looked up): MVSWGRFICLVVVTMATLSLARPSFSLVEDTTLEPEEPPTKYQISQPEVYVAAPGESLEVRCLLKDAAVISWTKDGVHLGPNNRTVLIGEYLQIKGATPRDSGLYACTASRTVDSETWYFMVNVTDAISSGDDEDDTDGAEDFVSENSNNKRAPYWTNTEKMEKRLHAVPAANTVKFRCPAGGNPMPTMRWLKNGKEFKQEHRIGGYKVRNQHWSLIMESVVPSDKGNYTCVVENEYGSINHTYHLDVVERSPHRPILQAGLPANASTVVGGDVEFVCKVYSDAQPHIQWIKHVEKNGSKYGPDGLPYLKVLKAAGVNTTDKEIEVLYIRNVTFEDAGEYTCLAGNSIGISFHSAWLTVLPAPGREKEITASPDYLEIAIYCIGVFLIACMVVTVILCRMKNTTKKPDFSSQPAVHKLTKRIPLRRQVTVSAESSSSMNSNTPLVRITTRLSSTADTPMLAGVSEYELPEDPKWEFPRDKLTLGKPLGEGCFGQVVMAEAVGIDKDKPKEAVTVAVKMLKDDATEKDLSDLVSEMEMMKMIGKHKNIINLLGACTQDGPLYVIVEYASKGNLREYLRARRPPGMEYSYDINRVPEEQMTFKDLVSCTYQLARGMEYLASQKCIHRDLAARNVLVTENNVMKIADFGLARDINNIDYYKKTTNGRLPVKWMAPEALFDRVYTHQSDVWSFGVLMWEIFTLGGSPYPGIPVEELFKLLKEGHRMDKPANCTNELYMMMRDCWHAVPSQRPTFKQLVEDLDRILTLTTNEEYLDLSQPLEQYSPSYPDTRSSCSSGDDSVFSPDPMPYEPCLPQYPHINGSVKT

Set 1
SMILES: O=C(Nc1cnn(-c2csc(C(=O)NC3COC3)c2)c1)Nc1ccccc1Cl
Observed: enzyme activity
Concentration: 5 µM
Relative to: untreated control
Measurement: remaining activity
CAMK1 (Homo sapiens, UniProt Q14012): 85.4%
CAMK2D (Homo sapiens, UniProt Q13557): 102%
PRKCG (Homo sapiens, UniProt P05129): 97.2%
EPHB4 (Homo sapiens, UniProt P54760): 97%
WEE1 (Homo sapiens, UniProt P30291): 122%
LYN (Homo sapiens, UniProt P07948): 94.4%
PRKCA (Homo sapiens, UniProt P17252): 100%
DDR1 (Homo sapiens, UniProt Q08345): 95.9%
PRKCI (Homo sapiens, UniProt P41743): 94.2%

Set 2
Target: Calcium/calmodulin-dependent protein kinase type II subunit alpha (CAMK2A, Homo sapiens, UniProt Q9UQM7)
Sequence of UniProt Q9UQM7 (whole entry, looked up): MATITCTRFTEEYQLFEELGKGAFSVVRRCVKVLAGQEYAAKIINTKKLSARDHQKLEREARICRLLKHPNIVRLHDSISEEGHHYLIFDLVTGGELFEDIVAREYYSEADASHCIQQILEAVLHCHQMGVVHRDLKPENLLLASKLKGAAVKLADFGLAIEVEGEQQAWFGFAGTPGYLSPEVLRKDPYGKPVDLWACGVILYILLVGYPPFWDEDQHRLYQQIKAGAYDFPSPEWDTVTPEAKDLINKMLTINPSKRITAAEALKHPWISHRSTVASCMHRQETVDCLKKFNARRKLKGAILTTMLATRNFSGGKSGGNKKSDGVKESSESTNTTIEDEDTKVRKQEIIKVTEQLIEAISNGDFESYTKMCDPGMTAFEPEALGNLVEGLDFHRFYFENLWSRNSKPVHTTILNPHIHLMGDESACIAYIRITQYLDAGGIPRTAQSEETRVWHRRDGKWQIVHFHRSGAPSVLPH
Observed: enzyme activity
Mode: inhibitor
Concentration: 10 µM
Measurement: inhibition
C[C@H](C[C@H](O)[C@@H](O)C(C)(C)O)C1=C2C[C@H](O)[C@H]3[C@@]4(C)CCC(=O)C(C)(C)[C@@H]4CC[C@]3(C)[C@@]2(C)CC1: -26%
CC(=O)NC(CC(C)C)C(=O)O (centres unmarked): 8%
C[C@@H]1C[C@@H]([C@@H](O)C(C)(C)O)O[C@H]2C[C@@]3(C)C(=C12)C[C@H](O)[C@H]1[C@@]2(C)CCC(=O)C(C)(C)[C@@H]2CC[C@@]13C: 22%
O=c1cccc[nH]1: 3%
COC(=O)C1=COC(O[C@@H]2O[C@H](CO)[C@@H](O)[C@H](O)[C@H]2O)/C(=C/C(=O)O)C1CC(=O)OCCc1ccc(O)c(O)c1 (some centres unmarked): 9%
O=C1N[C@@H](Cc2ccc(O)cc2)C(=O)N2CCC[C@@H]12: -23%

Set 3
Method: PRP chromatography estimate
Matrix: 1,9-decadiene/PBS
pH: 7.4
Measurement: logD
CC(C)C[C@@H]1NC(=O)[C@H](CC(C)C)NC(=O)[C@@H](CC(C)C)NC(=O)[C@H](C(C)C)NC(=O)[C@H](C)NC(=O)[C@@H](CC(C)C)NC(=O)[C@H](C)NC1=O: -0.728
CC(C)C[C@@H]1NC(=O)[C@@H](C)NC(=O)[C@H](CCC(=O)N2CCCC2)NC(=O)[C@@H](C(C)C)NC(=O)[C@H](C(C)C)NC(=O)[C@H](CC(C)C)NC(=O)[C@@H](CC(C)C)NC1=O: -0.989
CC(C)C[C@@H]1NC(=O)[C@H](Cc2cscn2)NC(=O)[C@H](C)NC(=O)[C@H](C)NC(=O)[C@@H](CCC(=O)N2CCCC2)NC(=O)[C@H](CC(C)C)NC(=O)[C@@H](CC(C)C)NC1=O: -2.8
CC(C)C[C@@H]1NC(=O)[C@H](C)NC(=O)[C@@H](Cc2cscn2)NC(=O)[C@@H](CC(C)C)NC(=O)[C@H](C)NC(=O)[C@H](CC(C)C)NC(=O)[C@H](CC(C)C)NC1=O: -1.39
CC(C)C[C@@H]1NC(=O)[C@H](CC(C)C)NC(=O)[C@H](CC(C)C)NC(=O)[C@H](CC(C)C)NC(=O)[C@@H](Cc2cscn2)NC(=O)[C@H](CCC(=O)N2CCCC2)NC(=O)[C@H](C)NC1=O: -1.8
CC(C)C[C@@H]1NC(=O)[C@H](CC(C)C)NC(=O)[C@H](CC(C)C)NC(=O)[C@H](C(C)C)NC(=O)[C@@H](CCC(=O)N2CCCC2)NC(=O)[C@H](Cc2cscn2)NC(=O)[C@H](C)NC1=O: -1.96

Set 4
Host: mouse
Matrix: microsomes or S9
Concentration: 2 µM
Time: 0.5 h
Measurement: remaining compound
CCCC(=O)OC[C@@H](OC(=O)CCC)[C@@H](OC(=O)CCC)[C@H](Cn1c2nc(=O)[nH]c(=O)c-2nc2cc(C)c(C)cc21)OC(=O)CCC: 0%
CCc1csc(CC(=O)N2CCCn3nccc32)n1: 46.4%
Cc1ccn(-c2ccc(NS(=O)(=O)c3ccc4c(c3)Cc3ccccc3-4)cc2)n1: 34%
Cn1ccc(Cn2nnn(-c3cccs3)c2=O)cc1=O: 34.4%
COc1cc2c(cc1OC)/C(=N\c1ccccc1)N(Cc1ccccc1F)CC2: 0.245%
NCc1nc(COc2ccc3ccccc3c2)no1: 5.26%
CN1CCN(C(=O)c2ccc(-c3ccc4nnc(Cc5cccc6c(=O)[nH]ccc56)n4n3)cc2)CC1: 0%

Set 5
SMILES: CN(C)C(=O)Cn1cc(-c2nc(C3(c4ccc(-c5cnc(N)nc5)cc4)CC3)no2)cn1
Method: competition with immobilised ligand
Concentration: 1 µM
Measurement: remaining binding
TNK1 (Homo sapiens, UniProt Q13470); cell-free assay: 96%
SGK3 (Homo sapiens, UniProt Q96BR1); cell-free assay: 75%
FGFR2 (Homo sapiens, UniProt P21802); cell-free assay: 100%
LATS2 (Homo sapiens, UniProt Q9NRM7); cell-free assay: 46%
CILK1 (Homo sapiens, UniProt Q9UPZ9); binding: 76%
Ribosomal protein S6 kinase alpha-4, C-terminal kinase domain (RPS6KA4, Homo sapiens, UniProt O75676); cell-free assay: 86%
Tyrosine-protein kinase ABL1, phosphorylated (ABL1, Homo sapiens, UniProt P00519, Q252H); cell-free assay: 100%
CIT (Homo sapiens, UniProt O14578); cell-free assay: 86%
BMX (Homo sapiens, UniProt P51813); cell-free assay: 88%
PAK2 (Homo sapiens, UniProt Q13177); cell-free assay: 100%
EPHA5 (Homo sapiens, UniProt P54756); cell-free assay: 41%
DDR1 (Homo sapiens, UniProt Q08345); cell-free assay: 86%
MAP3K11 (Homo sapiens, UniProt Q16584); cell-free assay: 87%
EGFR (Homo sapiens, UniProt P00533, G719S); cell-free assay: 100%
PRKCD (Homo sapiens, UniProt Q05655); cell-free assay: 67%
SBK3 (Homo sapiens, UniProt P0C264); cell-free assay: 99%
ERBB3 (Homo sapiens, UniProt P21860); cell-free assay: 87%
KIT (Homo sapiens, UniProt P10721, L576P); cell-free assay: 84%
PLK2 (Homo sapiens, UniProt Q9NYY3); cell-free assay: 93%
DYRK1A (Homo sapiens, UniProt Q13627); cell-free assay: 66%
PKN1 (Homo sapiens, UniProt Q16512); cell-free assay: 84%
MAP2K2 (Homo sapiens, UniProt P36507); cell-free assay: 80%
MYLK (Homo sapiens, UniProt Q15746); cell-free assay: 72%
CDKL1 (Homo sapiens, UniProt Q00532); cell-free assay: 100%
Ribosomal protein S6 kinase alpha-2, C-terminal kinase domain (RPS6KA2, Homo sapiens, UniProt Q15349); cell-free assay: 100%
